Literature values that unrelated publications cite.
Chain of UniProt Q8TCC7 (whole entry, looked up): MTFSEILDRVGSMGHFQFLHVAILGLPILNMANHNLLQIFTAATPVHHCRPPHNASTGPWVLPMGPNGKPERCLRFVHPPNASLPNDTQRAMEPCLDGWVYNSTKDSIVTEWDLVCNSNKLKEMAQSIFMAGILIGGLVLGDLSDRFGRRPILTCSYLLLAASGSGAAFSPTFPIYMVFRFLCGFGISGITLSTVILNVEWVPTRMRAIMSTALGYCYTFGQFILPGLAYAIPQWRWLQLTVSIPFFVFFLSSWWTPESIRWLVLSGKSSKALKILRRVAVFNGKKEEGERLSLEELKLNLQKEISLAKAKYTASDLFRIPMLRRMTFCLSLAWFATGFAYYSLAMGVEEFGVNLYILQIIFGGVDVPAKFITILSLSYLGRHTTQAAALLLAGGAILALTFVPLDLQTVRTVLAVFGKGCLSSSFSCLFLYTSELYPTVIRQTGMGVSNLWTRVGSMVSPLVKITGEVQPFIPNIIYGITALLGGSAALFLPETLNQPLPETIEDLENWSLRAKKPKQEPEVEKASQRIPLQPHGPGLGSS

Structure (SMILES)	target	assay	system	setting	how to read	endpoint	result
Cc1c(O)cccc1C(=O)N[C@@H](CSc1ccccc1)[C@H](O)CN1C[C@H]2CCCC[C@H]2C[C@H]1C(=O)NC(C)(C)C	first-pass CYP3A human	–	–	concentration not given	–	inhibition	> 75%
CN(Cc1cnc2nc(N)nc(N)c2n1)c1ccc(C(=O)N[C@@H](CCC(=O)O)C(=O)O)cc1	SLC22A8 (Homo sapiens, UniProt Q8TCC7)	–	human	200 mg/m2, without probenecid	–	clearance	6.5 L/h
COc1cnc(-n2cnc(C)n2)c2[nH]cc(C(=O)C(=O)N3CCN(C(=O)c4ccccc4)CC3)c12	CYP3A4 human	–	human	dose not given, together with: ritonavir	baseline: without ritonavir	exposure increase	40%
Cc1ccc(NC(=O)[C@H]2CCCN(C(=O)c3c(C)cccc3F)[C@H]2c2ccc(NC3CCCC3)cc2)cc1C(F)(F)F	CYP3A4	inhibitor	human, fasted	oral, 30 mg twice daily, 11 days, together with: midazolam	baseline: midazolam alone	midazolam Cmax increase	1.6 fold
O=C(NC(=O)c1c(F)cccc1F)Nc1cc(Cl)c(OC(F)(F)C(F)F)c(Cl)c1	CYP3A4	inhibitor	–	Tox21 screening	–	IC50	inactive
O=C(O)C(F)(F)C(F)(F)C(F)(F)C(F)(F)C(F)(F)C(F)(F)C(F)(F)F	OATP2B1 (human)	apical uptake, substrate	Caco-2	–	–	Km	8.3 µM
O=C(O)C(F)(F)C(F)(F)C(F)(F)C(F)(F)C(F)(F)C(F)(F)C(F)(F)C(F)(F)F	CYP1A2	inhibitor	–	Tox21 screening	–	IC50	inactive
C[S+]([O-])c1nc2cc(Oc3cccc(Cl)c3Cl)c(Cl)cc2[nH]1 (centres unmarked)	Bcrp, mouse	substrate	Bcrp knockout mice, plasma	dose not given	baseline: wild-type mice	plasma concentration	increased
FC(F)(F)C(F)(F)C(F)(F)C(F)(F)C(F)(F)C(F)(F)CCI	CYP2C9	inhibitor	–	Tox21 screening	–	IC50	inactive
C=C[C@@H]1C[C@]1(NC(=O)[C@@H]1C[C@@H]2CN1C(=O)[C@H](C(C)(C)C)NC(=O)O[C@@H]1C[C@H]1CCCCCc1nc3ccc(OC)cc3nc1O2)C(=O)NS(=O)(=O)C1CC1	CYP2C9	–	human liver microsomes	–	–	IC50	> 100 µM
CCCCCc1cc(O)c(C/C=C(\C)CCC=C(C)C)c(O)c1	CYP2C9, human	enzyme activity, inhibitor	human liver microsomes	10 µM	–	inhibition	inhibited
